Measured values gathered from unrelated publications.
Parts stem from different laboratories: compare values within a part only.
Sequence of UniProt Q02750 (whole entry, looked up): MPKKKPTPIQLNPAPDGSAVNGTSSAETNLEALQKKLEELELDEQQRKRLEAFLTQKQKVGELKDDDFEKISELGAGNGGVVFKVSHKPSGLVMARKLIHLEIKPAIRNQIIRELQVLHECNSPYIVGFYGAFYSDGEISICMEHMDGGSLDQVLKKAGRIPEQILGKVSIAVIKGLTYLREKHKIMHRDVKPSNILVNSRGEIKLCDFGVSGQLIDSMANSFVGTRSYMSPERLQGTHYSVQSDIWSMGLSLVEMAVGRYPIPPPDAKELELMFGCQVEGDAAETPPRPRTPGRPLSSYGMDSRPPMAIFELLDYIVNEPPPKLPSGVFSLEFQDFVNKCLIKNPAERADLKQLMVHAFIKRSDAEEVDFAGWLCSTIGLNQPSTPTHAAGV
Sequence of UniProt Q16539 (whole entry, looked up): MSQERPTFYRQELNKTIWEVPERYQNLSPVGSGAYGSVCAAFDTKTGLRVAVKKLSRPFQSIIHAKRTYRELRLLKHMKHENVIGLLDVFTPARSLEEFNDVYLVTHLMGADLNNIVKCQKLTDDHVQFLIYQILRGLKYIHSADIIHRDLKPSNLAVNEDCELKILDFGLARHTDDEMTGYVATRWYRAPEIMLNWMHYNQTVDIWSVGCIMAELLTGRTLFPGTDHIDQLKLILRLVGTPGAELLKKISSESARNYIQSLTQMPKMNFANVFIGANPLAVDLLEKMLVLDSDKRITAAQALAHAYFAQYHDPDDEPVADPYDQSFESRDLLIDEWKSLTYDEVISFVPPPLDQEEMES
Sequence of UniProt Q13464 (whole entry, looked up): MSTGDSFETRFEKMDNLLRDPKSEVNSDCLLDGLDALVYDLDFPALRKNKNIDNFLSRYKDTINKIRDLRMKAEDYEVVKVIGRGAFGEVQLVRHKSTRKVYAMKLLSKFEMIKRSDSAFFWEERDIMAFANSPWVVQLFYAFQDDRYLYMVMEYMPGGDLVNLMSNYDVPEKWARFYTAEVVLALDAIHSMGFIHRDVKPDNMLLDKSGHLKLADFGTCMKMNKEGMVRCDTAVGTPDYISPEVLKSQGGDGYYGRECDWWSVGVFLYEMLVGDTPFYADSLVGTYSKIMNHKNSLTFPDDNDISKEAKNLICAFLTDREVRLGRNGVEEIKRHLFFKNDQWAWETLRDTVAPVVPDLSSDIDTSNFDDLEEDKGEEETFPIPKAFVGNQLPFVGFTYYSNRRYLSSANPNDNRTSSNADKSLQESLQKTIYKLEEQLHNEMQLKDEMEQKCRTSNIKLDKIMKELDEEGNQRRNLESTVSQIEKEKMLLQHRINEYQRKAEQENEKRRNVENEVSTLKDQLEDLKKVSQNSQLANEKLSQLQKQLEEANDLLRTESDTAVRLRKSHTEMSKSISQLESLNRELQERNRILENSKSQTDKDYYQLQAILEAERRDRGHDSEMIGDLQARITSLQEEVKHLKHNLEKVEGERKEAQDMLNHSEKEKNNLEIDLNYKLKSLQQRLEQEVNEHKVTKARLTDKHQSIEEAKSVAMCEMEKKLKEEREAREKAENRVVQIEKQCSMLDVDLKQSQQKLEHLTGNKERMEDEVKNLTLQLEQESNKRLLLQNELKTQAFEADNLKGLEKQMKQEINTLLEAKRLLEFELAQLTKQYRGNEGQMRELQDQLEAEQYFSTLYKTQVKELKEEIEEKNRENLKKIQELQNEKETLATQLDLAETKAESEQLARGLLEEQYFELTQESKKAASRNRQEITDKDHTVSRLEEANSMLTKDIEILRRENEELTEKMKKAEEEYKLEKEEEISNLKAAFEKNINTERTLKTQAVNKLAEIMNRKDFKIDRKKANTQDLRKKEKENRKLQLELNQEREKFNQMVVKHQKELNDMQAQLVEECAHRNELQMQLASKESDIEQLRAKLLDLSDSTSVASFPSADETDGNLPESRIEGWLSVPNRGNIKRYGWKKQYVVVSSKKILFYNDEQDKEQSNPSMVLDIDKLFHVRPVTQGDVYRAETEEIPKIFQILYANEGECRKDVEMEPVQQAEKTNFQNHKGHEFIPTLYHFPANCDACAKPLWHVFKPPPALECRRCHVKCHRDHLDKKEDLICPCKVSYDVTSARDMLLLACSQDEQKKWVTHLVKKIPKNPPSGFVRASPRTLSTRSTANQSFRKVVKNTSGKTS
Sequence of UniProt Q14164 (whole entry, looked up): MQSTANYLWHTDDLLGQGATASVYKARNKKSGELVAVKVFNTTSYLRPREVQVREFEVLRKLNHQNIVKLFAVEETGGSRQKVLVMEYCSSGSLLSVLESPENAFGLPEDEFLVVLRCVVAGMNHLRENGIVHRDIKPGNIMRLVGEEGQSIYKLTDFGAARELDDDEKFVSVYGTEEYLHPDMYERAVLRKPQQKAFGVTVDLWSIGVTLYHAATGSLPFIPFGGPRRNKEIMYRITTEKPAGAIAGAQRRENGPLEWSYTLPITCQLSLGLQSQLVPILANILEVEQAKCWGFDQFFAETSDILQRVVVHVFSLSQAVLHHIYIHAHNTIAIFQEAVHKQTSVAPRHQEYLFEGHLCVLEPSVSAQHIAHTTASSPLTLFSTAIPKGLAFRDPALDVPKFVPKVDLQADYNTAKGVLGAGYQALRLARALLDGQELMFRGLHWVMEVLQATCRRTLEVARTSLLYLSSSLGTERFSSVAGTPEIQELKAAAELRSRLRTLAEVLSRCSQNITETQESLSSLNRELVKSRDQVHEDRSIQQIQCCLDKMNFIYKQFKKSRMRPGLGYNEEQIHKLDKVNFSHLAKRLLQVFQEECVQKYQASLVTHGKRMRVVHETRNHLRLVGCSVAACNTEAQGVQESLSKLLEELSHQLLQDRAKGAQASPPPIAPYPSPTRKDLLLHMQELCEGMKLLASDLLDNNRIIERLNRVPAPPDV

Block 1 — technique: DNA microarray; baseline: untreated cells
Structure (SMILES): COCC1CC2C(CCC3(C)C(O)CCC23)c2ccc(O)cc21 (centres unmarked)
SK-OV-3; measured: CDC25B; concentration not given, higher dose arm — “log2 fold change”: 0.271.
PANC-1; measured: MCM7; concentration not given, lower dose arm — “log2 fold change”: -0.419.
The “log2 fold change” was 1.23 (A549; measured: GDF15; 50 µM).
It gave 0.258 for “log2 fold change” (A549; measured: CDC25B; 50 µM).
For PANC-1; measured: CCL22; concentration not given, lower dose arm: “log2 fold change” read 0.
It gave -0.384 for “log2 fold change” (A549; measured: CDCA8; 50 µM).
It gave 0.797 for “log2 fold change” (A549; measured: CALR3; 50 µM).
The “log2 fold change” was 3.09 (PANC-1; measured: IL23R; concentration not given, lower dose arm).
For PANC-1; measured: GZMK; concentration not given, higher dose arm: “log2 fold change” read 0.
A549; measured: MCM6; 100 µM — “log2 fold change”: -0.569.
For SK-OV-3; measured: RFC3; concentration not given, lower dose arm: “log2 fold change” read 0.0929.
For PANC-1; measured: TMEM108; concentration not given: “log2 fold change” read 1.86.
For A549; measured: OLIG2; 50 µM: “log2 fold change” read 5.42.
For PANC-1; measured: IL28A; concentration not given: “log2 fold change” read 1.61.
PANC-1; measured: GZMK; concentration not given, lower dose arm — “log2 fold change”: 0.
A549; measured: RFC3; 100 µM — “log2 fold change”: -0.618.
For PANC-1; measured: GINS1; concentration not given, lower dose arm: “log2 fold change” read -0.497.
SK-OV-3; measured: AURKA; concentration not given, lower dose arm — “log2 fold change”: -0.198.
For A549; measured: GDF15; concentration not given: “log2 fold change” read 2.74.
For A549; measured: MCM4; 50 µM: “log2 fold change” read -0.517.

Block 2 — read-out: thermal unfolding; technique: differential scanning fluorimetry; concentration: 5.5 µM; reading: higher = more unfolded
SMILES: C[C@@H]1CN(c2ccc(-c3cc(C(=O)NCCOCCOCCOCCOCCNC(=O)Cn4cc(-c5[nH]cc(C(=O)N[C@@H](CC(N)=O)c6ccc(F)c(Cl)c6)c5-c5ccc(Cl)cc5F)cn4)ccc3F)cc2NC(=O)c2c[nH]c(=O)cc2C(F)(F)F)C[C@H](C)N1C
DCAF1: DDB1- and CUL4-associated factor 1 (DCAF1, Homo sapiens, UniProt Q9Y4B6)
Sequence of UniProt Q9Y4B6 (whole entry, looked up): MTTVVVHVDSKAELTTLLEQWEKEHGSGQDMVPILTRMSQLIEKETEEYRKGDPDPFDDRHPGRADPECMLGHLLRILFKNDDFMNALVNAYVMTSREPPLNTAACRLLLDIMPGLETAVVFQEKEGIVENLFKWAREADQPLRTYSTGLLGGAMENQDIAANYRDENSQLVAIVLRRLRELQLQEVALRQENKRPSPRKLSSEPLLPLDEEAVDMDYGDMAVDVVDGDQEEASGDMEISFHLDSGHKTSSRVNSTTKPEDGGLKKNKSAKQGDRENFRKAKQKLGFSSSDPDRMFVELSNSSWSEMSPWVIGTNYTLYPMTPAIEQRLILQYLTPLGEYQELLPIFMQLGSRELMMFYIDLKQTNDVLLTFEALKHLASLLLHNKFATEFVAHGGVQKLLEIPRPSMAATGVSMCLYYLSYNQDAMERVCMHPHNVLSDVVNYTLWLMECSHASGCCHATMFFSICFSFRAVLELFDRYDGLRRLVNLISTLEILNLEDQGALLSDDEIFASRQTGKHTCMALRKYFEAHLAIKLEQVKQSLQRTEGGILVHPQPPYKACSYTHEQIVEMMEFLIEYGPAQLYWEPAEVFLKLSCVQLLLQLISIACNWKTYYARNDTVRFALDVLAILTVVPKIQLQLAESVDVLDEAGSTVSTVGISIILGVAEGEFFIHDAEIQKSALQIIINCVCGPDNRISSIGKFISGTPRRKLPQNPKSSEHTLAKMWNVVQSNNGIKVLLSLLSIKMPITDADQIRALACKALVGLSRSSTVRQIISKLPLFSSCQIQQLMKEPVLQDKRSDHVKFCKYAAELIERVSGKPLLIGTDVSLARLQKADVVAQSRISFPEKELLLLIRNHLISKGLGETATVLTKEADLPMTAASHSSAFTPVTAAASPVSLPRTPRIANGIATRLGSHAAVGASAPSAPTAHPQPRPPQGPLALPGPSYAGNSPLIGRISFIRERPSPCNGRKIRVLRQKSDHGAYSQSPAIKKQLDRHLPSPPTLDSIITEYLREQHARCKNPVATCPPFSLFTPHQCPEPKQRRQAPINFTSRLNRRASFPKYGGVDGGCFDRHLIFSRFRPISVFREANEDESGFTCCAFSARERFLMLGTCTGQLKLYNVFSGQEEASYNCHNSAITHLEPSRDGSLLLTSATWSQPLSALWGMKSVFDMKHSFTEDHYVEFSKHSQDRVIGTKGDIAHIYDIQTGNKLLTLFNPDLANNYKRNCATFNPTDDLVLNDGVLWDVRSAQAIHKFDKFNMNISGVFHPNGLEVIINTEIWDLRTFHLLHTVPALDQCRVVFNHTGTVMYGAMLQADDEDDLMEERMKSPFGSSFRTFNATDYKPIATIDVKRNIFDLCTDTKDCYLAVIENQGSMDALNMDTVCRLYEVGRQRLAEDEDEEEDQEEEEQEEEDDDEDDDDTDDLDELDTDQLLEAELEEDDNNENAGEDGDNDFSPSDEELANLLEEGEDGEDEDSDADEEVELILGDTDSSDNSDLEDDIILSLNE
WDR5: WD repeat-containing protein 5 (WDR5, Homo sapiens, UniProt P61964)
DCAF1; 85.01 °C — “SYPRO Orange fluorescence”: 39800 a.u.
DCAF1; 30.6 °C — “SYPRO Orange fluorescence”: 8330 a.u.
DCAF1; 42.8 °C — “SYPRO Orange fluorescence”: 11300 a.u.
It gave 25900 a.u. for “SYPRO Orange fluorescence” (WDR5; 80.81 °C).
For WDR5; 65.21 °C: “SYPRO Orange fluorescence” read 7530 a.u.
For WDR5; 29.6 °C: “SYPRO Orange fluorescence” read 15000 a.u.
For DCAF1; 61.41 °C: “SYPRO Orange fluorescence” read 45000 a.u.
It gave 21400 a.u. for “SYPRO Orange fluorescence” (WDR5; 79.41 °C).
For WDR5; 38.4 °C: “SYPRO Orange fluorescence” read 14400 a.u.
WDR5; 29.8 °C — “SYPRO Orange fluorescence”: 15000 a.u.
WDR5; 49.2 °C — “SYPRO Orange fluorescence”: 14500 a.u.

Block 3 — Structure (SMILES): CCCNC(=O)COc1cc(C)c(Cl)c(C)c1; mode: inhibitor; cells: CHO-BC cells; notes: unit not given
Target: Sodium-dependent neutral amino acid transporter B(0)AT1 (SLC6A19, Homo sapiens, UniProt Q695T7)
Sequence of UniProt Q695T7 (whole entry, looked up): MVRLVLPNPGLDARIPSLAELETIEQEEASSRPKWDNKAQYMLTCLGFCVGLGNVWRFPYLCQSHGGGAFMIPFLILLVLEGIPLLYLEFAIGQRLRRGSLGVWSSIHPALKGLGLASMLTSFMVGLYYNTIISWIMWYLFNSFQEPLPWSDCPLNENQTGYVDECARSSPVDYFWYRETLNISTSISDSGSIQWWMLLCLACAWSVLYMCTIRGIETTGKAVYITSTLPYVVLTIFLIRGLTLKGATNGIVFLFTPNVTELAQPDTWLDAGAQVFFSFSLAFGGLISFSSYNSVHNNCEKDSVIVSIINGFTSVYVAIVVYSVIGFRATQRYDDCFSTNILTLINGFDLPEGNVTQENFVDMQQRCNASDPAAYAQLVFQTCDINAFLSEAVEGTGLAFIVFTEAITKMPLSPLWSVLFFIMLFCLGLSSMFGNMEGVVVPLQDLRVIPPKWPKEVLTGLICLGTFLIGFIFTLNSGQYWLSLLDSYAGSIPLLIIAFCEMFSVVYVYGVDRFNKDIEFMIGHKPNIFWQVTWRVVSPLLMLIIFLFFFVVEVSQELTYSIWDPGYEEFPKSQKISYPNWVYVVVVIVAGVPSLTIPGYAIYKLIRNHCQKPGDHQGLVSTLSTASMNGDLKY
It gave 0.485 for “remaining transport activity” (L-[14C]leucine uptake; 3 µM, 6 min, with: GPNA 3 mM, JPH203 3 µM; baseline: uninhibited cells).
The “remaining transport activity” was 0.278 (FLIPR membrane potential; 30 µM; baseline: no inhibitor).
L-[14C]leucine uptake; 0.01 µM, 6 min, with: GPNA 3 mM, JPH203 3 µM; baseline: uninhibited cells — “remaining transport activity”: 0.888.
The “remaining transport activity” was 0.846 (L-[14C]leucine uptake; 0.03 µM, 6 min, with: GPNA 3 mM, JPH203 3 µM; baseline: uninhibited cells).
L-[14C]leucine uptake; 10 µM, 6 min, with: GPNA 3 mM, JPH203 3 µM; baseline: uninhibited cells — “remaining transport activity”: 0.286.
It gave 0.85 for “remaining transport activity” (L-[14C]leucine uptake; 0.1 µM, 6 min, with: GPNA 3 mM, JPH203 3 µM; baseline: uninhibited cells).
L-[14C]leucine uptake; 0.001 µM, 6 min, with: GPNA 3 mM, JPH203 3 µM; baseline: uninhibited cells — “remaining transport activity”: 0.949.
The “remaining transport activity” was 1.02 (FLIPR membrane potential; 0.3 µM; baseline: no inhibitor).
It gave 0.562 for “remaining transport activity” (L-[14C]leucine uptake; 1 µM, 6 min, with: GPNA 3 mM, JPH203 3 µM; baseline: uninhibited cells).
The “remaining transport activity” was 0.724 (L-[14C]leucine uptake; 0.3 µM, 6 min, with: GPNA 3 mM, JPH203 3 µM; baseline: uninhibited cells).
For L-[14C]leucine uptake; 30 µM, 6 min, with: GPNA 3 mM, JPH203 3 µM; baseline: uninhibited cells: “remaining transport activity” read 0.114.
For L-[14C]leucine uptake; 0.003 µM, 6 min, with: GPNA 3 mM, JPH203 3 µM; baseline: uninhibited cells: “remaining transport activity” read 0.961.

Block 4 — concentration: 1 µM
SMILES: CC[C@@]1(c2cccc(C(F)(F)F)c2)C2=C(Nc3n[nH]cc31)[C@H](F)C(C)(C)CC2=O (single isomer, unassigned)
Activin receptor type-1 (ACVR1, Homo sapiens, UniProt Q04771); kinase binding, KINOMEscan; baseline: DMSO control — remaining binding: 95%.
It gave 93% for remaining binding (Rho-associated protein kinase 1 (ROCK1, Homo sapiens, UniProt Q13464); binding, competition with immobilised ligand).
For Dual specificity mitogen-activated protein kinase kinase 1 (MAP2K1, Homo sapiens, UniProt Q02750); kinase binding, KINOMEscan; baseline: DMSO control: remaining binding read 88%.
For Ephrin type-B receptor 6 (EPHB6, Homo sapiens, UniProt O15197); binding, competition with immobilised ligand: remaining binding read 90%.
Inhibitor of nuclear factor kappa-B kinase subunit epsilon (IKBKE, Homo sapiens, UniProt Q14164); binding, competition with immobilised ligand — remaining binding: 100%.
The remaining binding was 80% (Ribosomal protein S6 kinase alpha-4, N-terminal kinase domain (RPS6KA4, Homo sapiens, UniProt O75676); kinase binding, KINOMEscan; baseline: DMSO control).
It gave 100% for remaining binding (Mitogen-activated protein kinase 14 (MAPK14, Homo sapiens, UniProt Q16539); binding, competition with immobilised ligand).
Membrane-associated tyrosine- and threonine-specific cdc2-inhibitory kinase (PKMYT1, Homo sapiens, UniProt Q99640); binding, competition with immobilised ligand — remaining binding: 79%.
For Serine/threonine-protein kinase Nek7 (NEK7, Homo sapiens, UniProt Q8TDX7); kinase binding, KINOMEscan; baseline: DMSO control: remaining binding read 100%.
For Tyrosine-protein kinase ABL1, phosphorylated (ABL1, Homo sapiens, UniProt P00519, M351T); binding, competition with immobilised ligand: remaining binding read 93%.
The remaining binding was 100% (Mitogen-activated protein kinase 4 (MAPK4, Homo sapiens, UniProt P31152); kinase binding, KINOMEscan; baseline: DMSO control).
Dual specificity mitogen-activated protein kinase kinase 5 (MAP2K5, Homo sapiens, UniProt Q13163); kinase binding, KINOMEscan; baseline: DMSO control — remaining binding: 68%.
For Serine/threonine-protein kinase 38-like (STK38L, Homo sapiens, UniProt Q9Y2H1); binding, competition with immobilised ligand: remaining binding read 93%.
It gave 100% for remaining binding (Serine/threonine-protein kinase BRSK2 (BRSK2, Homo sapiens, UniProt Q8IWQ3); binding, competition with immobilised ligand).
For Ephrin type-A receptor 4 (EPHA4, Homo sapiens, UniProt P54764); binding, competition with immobilised ligand: remaining binding read 75%.
For Tyrosine-protein kinase Tec (TEC, Homo sapiens, UniProt P42680); kinase binding, KINOMEscan; baseline: DMSO control: remaining binding read 100%.
